# Measurements pooled from the literature.
# Protocols differ between the studies behind these lines. “And” joins repeats or separate records; there may be more than shown. Numbers after ± are the reported error.
# SCN9A: Sodium channel protein type 9 subunit alpha (SCN9A, Homo sapiens, UniProt Q15858)
# OPG122: mRNA-decapping protein OPG122 (OPG122, Vaccinia virus, UniProt P04312)
# bglR: Beta-glucuronidase (bglR, Clostridium perfringens, UniProt Q8XP19)
# Replicase polyprotein 1a papain-like protease: Replicase polyprotein 1a, papain-like protease (Severe acute respiratory syndrome coronavirus 2, UniProt P0DTC1)
Compound,target,assay,test system,setting,IC50
CC(C)C[C@H](NC(=O)[C@H](CC(=O)O)NC(=O)[C@H](CCCCN)NC(=O)[C@H](CCCCN)NC(=O)[C@@H]1CSSC[C@@H]2NC(=O)[C@H](CCCCN)NC(=O)[C@H](CC(=O)O)NC(=O)[C@H](CC(N)=O)NC(=O)[C@H](CO)NC(=O)[C@@H]3CCCN3C(=O)[C@H](CC(N)=O)NC(=O)[C@@H]3CSSC[C@H](NC(=O)[C@H](C(C)C)NC(=O)[C@H](CC(C)C)NC(=O)[C@H](CO)NC(=O)[C@H](CO)NC(=O)[C@H](CO)NC(=O)[C@H](CCCCN)NC(=O)[C@H](CSSC[C@H](NC(=O)[C@H](C)N)C(=O)N[C@@H](CC(C)C)C(=O)NCC(=O)N[C@@H](Cc4ccccc4)C(=O)NCC(=O)N[C@@H](CCC(=O)O)C(=O)N[C@@H](CCCCN)C(=O)N3)NC2=O)C(=O)N[C@@H](CO)C(=O)N[C@@H](CCC(N)=O)C(=O)N[C@@H](CCCCN)C(=O)N[C@@H](Cc2c[nH]cn2)C(=O)N[C@@H](CCCCN)C(=O)N[C@@H](Cc2c[nH]c3ccccc23)C(=O)N1)C(=O)O,SCN9A,"ion current, inhibitor, patch clamp",,,> 20 µM
CCC(CC)O[C@@H]1C=C(C(=O)O)C[C@H](NCc2ccc(N(C)C(C)C)cc2)[C@H]1NC(C)=O,"Neuraminidase (NA, Influenza A virus, UniProt P03468)","enzyme activity, inhibitor",,,0.17 µM
O=c1[nH]c(=O)c2ncn(C3OC(COP(=O)(O)OP(=O)(O)OP(=O)(O)O)C(O)C3O)c2[nH]1 (stereo not drawn),OPG122,,,,> 200 µM
COCCOc1cc(OCCOC)cc(C(=O)NCCOC(=O)[C@@H]2CCCCN2S(=O)(=O)Cc2ccccc2)c1,"Peptidyl-prolyl cis-trans isomerase (Burkholderia pseudomallei, UniProt Q63J95)","enzyme activity, inhibitor",,,0.58 µM
C1CCc2c(c(N3CCOCC3)nc3sc4c(N5CCCNCC5)nnnc4c23)C1,bglR,,,,2 ± 0.1 µM
O=S(=O)(O)c1ccc(N=Nc2cc(Oc3ncc(Cl)cc3Cl)ccc2O)cc1,"Ba71V-97, DNA complex (African swine fever virus, UniProt P42494)","enzyme activity, inhibitor",,,9.3 ± 0.5 µM
CC[C@H](C)[C@H](NC(=O)[C@H](Cc1c[nH]cn1)NC(=O)[C@H](Cc1ccc(O)cc1)NC(=O)[C@H](CCCCN)NC(=O)[C@@H]1CSSC[C@@H]2NC(=O)[C@H](CCC(=O)O)NC(=O)[C@H](CC(=O)O)NC(=O)[C@H](C)NC(=O)CNC(=O)[C@H](Cc3ccc(O)cc3)NC(=O)[C@H](CCCCN)NC(=O)[C@@H]3CSSC[C@H](NC(=O)[C@H](C(C)C)NC(=O)[C@H](Cc4ccc(O)cc4)NC(=O)CNC(=O)[C@H](CCCCN)NC(=O)[C@H](CSSC[C@H](NC(=O)[C@@H](N)CO)C(=O)N[C@@H](CCCCN)C(=O)NCC(=O)N[C@@H](Cc4c[nH]c5ccccc45)C(=O)N[C@@H](Cc4ccccc4)C(=O)N[C@@H](CC(N)=O)C(=O)N[C@@H](CCC(=O)O)C(=O)N3)NC2=O)C(=O)N[C@@H](CO)C(=O)N[C@@H](CCCCN)C(=O)N[C@@H](CCCNC(=N)N)C(=O)N[C@@H](CC(=O)O)C(=O)NCC(=O)N[C@@H](Cc2c[nH]c3ccccc23)C(=O)N1)C(=O)N[C@@H](CC(N)=O)C(=O)O,SCN9A,"ion current, inhibitor, patch clamp",,,1.03 µM
CC[C@H](C)[C@@H]1NC(=O)[C@H](CCCNC(=N)N)NC(=O)[C@H](CO)NC(=O)[C@H](CCC(=O)O)NC(=O)[C@H](CC(=O)O)NC(=O)CNC(=O)CNC(=O)[C@H]([C@@H](C)O)NC(=O)[C@H](Cc2ccccc2)NC(=O)[C@H](CO)NC(=O)[C@H]([C@@H](C)O)NC(=O)[C@H](C)NC(=O)[C@@H]2CSSC[C@@H](C(=O)N[C@@H](Cc3ccc(O)cc3)C(=O)N[C@@H](Cc3ccccc3)C(=O)N[C@H](C(=O)N[C@H](C(=O)NCC(=O)O)[C@@H](C)O)[C@@H](C)O)NC(=O)[C@H]([C@@H](C)O)NC(=O)[C@H](CSSC[C@H](NC(=O)[C@H](CCC(=O)O)NC(=O)[C@H](CO)NC(=O)[C@H](CCCCN)NC(=O)[C@H](Cc3ccc(O)cc3)NC(=O)[C@@H]3CCCN3C(=O)[C@H](Cc3ccccc3)NC(=O)[C@H](CCCCN)NC(=O)[C@H](CCCNC(=N)N)NC(=O)[C@H](CCCCN)NC(=O)[C@H](CCCCN)NC(=O)[C@H](Cc3ccc(O)cc3)NC(=O)[C@@H]3CCCN3C(=O)[C@@H](NC(=O)[C@H](CC(=O)O)NC(=O)[C@H](CCCCN)NC(=O)[C@H](CCCCN)NC(=O)[C@@H](NC(=O)[C@@H](NC(=O)[C@@H](N)CCC(=O)O)C(C)C)[C@@H](C)CC)[C@@H](C)O)C(=O)N[C@@H](CC(C)C)C(=O)N[C@@H](CCCCN)C(=O)N[C@@H](C)C(=O)N2)NC(=O)[C@H](CCCCN)NC(=O)[C@H](Cc2ccccc2)NC(=O)[C@H](Cc2ccccc2)NC(=O)CNC(=O)[C@@H]2CCCN2C(=O)[C@H](CCCCN)NC(=O)CNC(=O)[C@H](CCC(=O)O)NC(=O)[C@H](CCC(N)=O)NC1=O,"KCNQ2 (Homo sapiens, UniProt O43526)","ion current, inhibitor, patch clamp",,,2.7 µM
COc1cccc2[nH]c(C(=O)NC(CC(C)C)C(=O)NC(CC3CCCNC3=O)C(=O)COC(=O)c3c(C)cc(C)nc3C)cc12 (stereo not drawn),"Cathepsin S (CTSS, Homo sapiens, UniProt P25774)","enzyme activity, inhibitor",,"pH 5, with preincubation",0.016 µM
NCCNc1nnnc2c1sc1nc(N3CCOCC3)c3c(c12)CCCC3,bglR,,,,3.2 ± 0.6 µM
O=C(Nc1ccc(-c2ccccc2)cc1)N[C@H]1[C@H]([C@H](O)[C@H](O)CO)OC(C(=O)O)=C[C@@H]1O,"Sialidase (nanI, Clostridium perfringens, UniProt A0A0H2YQR1)","enzyme activity, inhibitor",,,36 µM
Nc1nc2c(nc(Br)n2C2OC(COP(=O)(O)OP(=O)(O)OP(=O)(O)O)C(O)C2O)c(=O)[nH]1 (stereo not drawn),OPG122,,,,> 200 µM
Nc1ccc(Cl)cc1C(=O)NC(COCP(=O)(O)OP(=O)(O)OP(=O)(O)O)Cn1cnc2c(N)ncnc21 (stereo not drawn),"cya (Bacillus anthracis, UniProt P40136)",,,,0.069 µM and 0.0689 µM
Cc1ccc(N)cc1C(=O)NC(C)(C)c1ccc2c3c(cccc13)CC2,Replicase polyprotein 1a papain-like protease,"enzyme activity, inhibitor",,,6.9 µM
CNc1ncnc2c1ncn2C1OC(COP(=O)(O)OP(=O)(O)OP(=O)(O)O)C(O)C1O (stereo not drawn),OPG122,,,,> 200 µM
CC[C@H](C)[C@H](NC(=O)[C@H](Cc1ccc(O)cc1)NC(=O)[C@H](Cc1c[nH]cn1)NC(=O)[C@@H]1CSSC[C@H](NC(=O)[C@@H]2CCCN2C(=O)[C@H](CCCNC(=N)N)NC(=O)[C@H](CC(C)C)NC(=O)[C@H](CC(=O)O)NC(=O)[C@@H]2CCCN2C(=O)[C@H](CCCCN)NC(=O)CNC(=O)CN)C(=O)N[C@@H](Cc2ccc(O)cc2)C(=O)N2CCC[C@H]2C(=O)N2CCC[C@H]2C(=O)N1)C(=O)N1CCC[C@H]1C(=O)N[C@@H](CCCNC(=N)N)C(=O)N1CCC[C@H]1C(=O)N[C@@H](CCCCN)C(=O)N1CCC[C@H]1C(=O)N[C@@H](CCCNC(=N)N)C(=O)O,"Soluble acetylcholine receptor (Aplysia californica, UniProt Q8WSF8)",cell-free assay,,,125 µM
CC1=C(C(=O)Nc2ccc(F)cc2)C(c2ccccc2Br)NC(=S)N1 (stereo not drawn),"Angiotensin-converting enzyme 2, with SARS-CoV-2 spike RBD (ACE2, Homo sapiens, UniProt Q9BYF1)",inhibitor,,,0.0216 ± 0.00092 µM
O=C(O)c1ccc(Nc2cc(Nc3ccc(C(=O)O)cc3)c3c(=O)c(Nc4ccc(C(=O)O)cc4)c(-c4ccc(Nc5ccc(C(=O)O)cc5)c(Nc5ccc(C(=O)O)cc5)c4)oc3c2)cc1,"Dipeptidyl peptidase 4, with MERS-CoV spike (DPP4, Homo sapiens, UniProt P27487)",,,,12 µM
CCC(C(=O)Nc1ccccc1Cl)n1cccc2nc(SCc3ccc(F)cc3)nc1-2 (stereo not drawn),"Replicase polyprotein 1ab, papain-like protease (rep, Middle East respiratory syndrome-related coronavirus, UniProt K9N7C7)","enzyme activity, inhibitor",,,> 100 µM
COC1C(COP(=O)(O)OP(=O)(O)OP(=O)(O)O)OC(n2cnc3c(=O)[nH]c(N)nc32)C1O (stereo not drawn),OPG122,,,,65 µM
Fc1ccc(-c2ccc(/C=C/Cn3ccnc3)cc2)cc1,"cyp121 (Mycobacterium tuberculosis, UniProt P9WPP7)","substrate depletion, inhibitor, LC-MS/MS",,together with: cYY 20 µM,21 µM
CC(=O)N[C@H]1CC(=O)NCCCC[C@@H](C(N)=O)NC(=O)[C@@H](Cc2ccccc2)NC(=O)[C@@H]2CCCN2C(=O)[C@H](CC(=O)O)NC(=O)[C@H](CC(C)C)NC(=O)[C@H](Cc2ccc(C(=O)O)cc2)NC(=O)[C@H](CCC(=O)O)NC1=O,"Secreted effector protein (Yersinia pestis, UniProt O68720)",,,,> 100 µM
CC(C)C[C@@H]1NC(=O)[C@H](CCCNC(=N)N)NC(=O)[C@@H]2CCCN2C(=O)[C@@H]2CSSC[C@H](NC(=O)CNC(=O)[C@@H]3CCCN3C(=O)[C@H](CCCCN)NC(=O)[C@H](CC(=O)O)NC(=O)[C@@H](NC(=O)CN)C(C)C)C(=O)N[C@@H](CCCNC(=N)N)C(=O)N[C@@H](Cc3ccc(O)cc3)C(=O)N[C@@H](CC(C)C)C(=O)N[C@@H](Cc3ccccc3)C(=O)NCC(=O)NCC(=O)N[C@H]3CSSC[C@H](NC(=O)CNC1=O)C(=O)N[C@@H](CCCCN)C(=O)NCC(=O)N[C@@H](CCCCN)C(=O)NCC(=O)N[C@@H](Cc1c[nH]cn1)C(=O)N[C@@H](CC(=O)O)C(=O)N[C@@H](Cc1ccc(O)cc1)C(=O)N[C@H](C(=O)N[C@@H](C)C(=O)N[C@@H](Cc1c[nH]c4ccccc14)C(=O)N[C@@H](CC(=O)O)C(=O)NCC(=O)N[C@H](C(=O)N[C@@H](Cc1ccccc1)C(=O)N[C@@H](CO)C(=O)N[C@@H](CC(=O)O)C(=O)O)[C@@H](C)O)CSSC[C@H](NC(=O)[C@H](CC(=O)O)NC(=O)[C@H](CC(=O)O)NC(=O)[C@H](CC(=O)O)NC(=O)[C@H](CO)NC(=O)[C@H](CCCCN)NC3=O)C(=O)N2,"SCN2A (Homo sapiens, UniProt Q99250)","peak sodium current, inhibitor, automated patch clamp",HEK293,"holding potential -100 mV, together with: 0.1 % BSA",1.23 µM
Cc1ccc(N2CC3CC(C2)N3)cc1C(=O)NC1(c2ccc3c4c(cccc24)C(=O)N3C)CC1,Replicase polyprotein 1a papain-like protease,cell-free assay,,,0.0063 µM

# Some of these lines once more:
Compound,target,assay,test system,setting,IC50
COc1cccc2[nH]c(C(=O)NC(CC(C)C)C(=O)NC(CC3CCCNC3=O)C(=O)COC(=O)c3c(C)cc(C)nc3C)cc12 (stereo not drawn),"Cathepsin S (CTSS, Homo sapiens, UniProt P25774)","enzyme activity, inhibitor",,"pH 5, with preincubation",0.016 µM
NCCNc1nnnc2c1sc1nc(N3CCOCC3)c3c(c12)CCCC3,bglR,,,,3.2 ± 0.6 µM
O=C(Nc1ccc(-c2ccccc2)cc1)N[C@H]1[C@H]([C@H](O)[C@H](O)CO)OC(C(=O)O)=C[C@@H]1O,"Sialidase (nanI, Clostridium perfringens, UniProt A0A0H2YQR1)","enzyme activity, inhibitor",,,36 µM
